{"data": "Results pooled from the literature", "note": "Parts stem from different laboratories: compare values within a part only. Changes are numbered by the printed parent chain."}
{"data": "Block 1", "target": "CREB3, bZIP domain (human)", "method": "DHFR protein complementation", "matrix": "yeast", "setting": "single substitutions, most at no-binding floor", "reference": "wild-type JUN-FOS pair", "reading": "higher = stronger binding", "starting sequence": "JUN, bZIP domain (human); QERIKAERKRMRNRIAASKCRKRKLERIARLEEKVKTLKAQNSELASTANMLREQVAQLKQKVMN; partner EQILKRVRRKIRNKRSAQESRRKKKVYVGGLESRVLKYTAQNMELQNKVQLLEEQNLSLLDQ"}
{"Change": "L59A", "binding fitness [natural log]": -1.71}
{"Change": "S47W", "binding fitness [natural log]": -1.45}
{"Change": "K39M", "binding fitness [natural log]": -1.45}
{"Change": "Q55N", "binding fitness [natural log]": -1.5}
{"Change": "R30L", "binding fitness [natural log]": -1.4}
{"Change": "R30D", "binding fitness [natural log]": -1.52}
{"Change": "A29W", "binding fitness [natural log]": -1.44}
{"Change": "E54L", "binding fitness [natural log]": -1.32}
{"Change": "L52I", "binding fitness [natural log]": -1.39}
{"Change": "A40Q", "binding fitness [natural log]": -1.4}
{"Change": "K36W", "binding fitness [natural log]": -1.47}
{"Change": "A46L", "binding fitness [natural log]": -1.41}
{"Change": "E33H", "binding fitness [natural log]": -1.45}
{"Change": "E54S", "binding fitness [natural log]": -1.51}
{"Change": "L38I", "binding fitness [natural log]": -1.23}
{"Change": "E32W", "binding fitness [natural log]": -1.45}
{"Change": "A40V", "binding fitness [natural log]": -1.38}
{"Change": "V56E", "binding fitness [natural log]": -1.52}
{"Change": "Q55P", "binding fitness [natural log]": -1.45}
{"Change": "Q41W", "binding fitness [natural log]": -1.49}
{"Change": "L52T", "binding fitness [natural log]": -1.5}
{"Change": "R30P", "binding fitness [natural log]": -1.52}
{"data": "Block 2", "target": "CCNB2, cyclin fold, Cln2 fusion (human)", "method": "yeast growth competition, sequencing", "matrix": "yeast", "setting": "weak parent motif", "reference": "not given", "reading": "higher = stronger binding", "starting sequence": "RRM2 docking peptide (human); SKTARRIFQEPTE"}
{"Change": "I7A", "normalised enrichment score": 0.581}
{"Change": "R6A", "normalised enrichment score": 0.0441}
{"Change": "E13A", "normalised enrichment score": 0.254}
{"Change": "E10A", "normalised enrichment score": 0.19}
{"Change": "Q9A", "normalised enrichment score": 0.648}
{"Change": "T3A", "normalised enrichment score": -0.159}
{"data": "Block 3", "target": "RNA binding protein fox-1 homolog 2, RRM domain, GST-SBP tag (RBFOX2, Homo sapiens, UniProt O43251-10, residues 100-194)", "method": "RNA Bind-n-Seq", "molecule type": "RNA", "matrix": "in vitro", "tested at": "365 nM", "setting": "natural RNA segment, single round, ends assumed", "reference": "no-protein control", "reading": "higher = stronger binding", "Target sequence (chain)": "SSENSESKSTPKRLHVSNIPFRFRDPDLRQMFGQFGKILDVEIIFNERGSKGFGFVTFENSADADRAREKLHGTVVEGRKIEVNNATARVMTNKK"}
{"Strand": "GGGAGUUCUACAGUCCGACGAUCUUACUCCAGUGUGUCUUGGCUUACACAAUUUAACAGCUUUCUGAUUUUAUUCACAUACAGUGAUGAAUCUUGCAUUGCAAAUUCAAAGUCUAAGUUAACAGUCUCCUAAAUGGAAUUCUCGGGUGCCAA", "RBNS enrichment (R)": 0.335}
{"Strand": "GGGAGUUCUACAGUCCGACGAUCGCAGCCUGUGCAGGGUCUCUGUCCUCAGAGCUCCAGACACCAGCAUCCUACUCUCAAGGAUGAAGUCUCCAGCCUGUGGAGCCAGCCUAGCUCCUAACUGUCAGGCUGACUGGAAUUCUCGGGUGCCAA", "RBNS enrichment (R)": 0.345}
{"Strand": "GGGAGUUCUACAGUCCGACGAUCCACAUUUUCUCAGUGUGCCCUUCUCUUAUCUGCCAUGUCCAUAGCCAUAAUUCCACCAUCAUACAGAUCAGGCAGUGUUUAAAAUGAUGGUAGGUAGCACAGUGGACAGUUGGAAUUCUCGGGUGCCAA", "RBNS enrichment (R)": 0.494}
{"Strand": "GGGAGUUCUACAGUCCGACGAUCAUUGUUGAGCAUAGCUGGCUUGCCCAAUCUCACAGUGGGUAGGAAGGAGAUGAAGUUUGGAAUCCAGUUUCUUUGGCUCAGAGCUGCUUUCAGUACCACUUGUUUUUAGCUGGAAUUCUCGGGUGCCAA", "RBNS enrichment (R)": 0.37}
{"Strand": "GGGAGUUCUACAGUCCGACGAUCAGCACUAGAUUUAAUGGGGCCAAGAGGGUCCAAACCCCUUGCUAACAUACCACUUCUUUGUUUAACUCCUUUACCUUUCCAGCCCUUUGAGGAGGGACCAUGAGAACAGAUGGAAUUCUCGGGUGCCAA", "RBNS enrichment (R)": 0.82}
{"Strand": "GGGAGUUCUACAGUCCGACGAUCGGGCAGAUGCUAGCACUGCCUGUUCUUAGUUCUCCUUCCAUUCCUGUCCUGAAGUUCUAACUGCCGAGCCUUACCUUCAUAGAAGGUCUUCACUGCCAGAGUGGGCAUCUUGGAAUUCUCGGGUGCCAA", "RBNS enrichment (R)": 0.318}
{"Strand": "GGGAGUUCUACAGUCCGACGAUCAGCUGUUUUAAAAUUAUGUAAAUAAGUCACAGGCUAGUUAUUUGAAAACUCUAAGUCACUUUAAUUUUGUCAGAAUCUUCUCUUACUAGGUAGGCCCAGGAUGUUCCAUAUGGAAUUCUCGGGUGCCAA", "RBNS enrichment (R)": 0.467}
{"Strand": "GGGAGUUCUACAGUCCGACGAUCGCUCACUUUUGCUCAAUACCUAUCAAAAGCUUGUCCCAGAGUGAUUAUGGAGGAUUGCAUGCAGGAUACACACUUCAUUAAAUCCUCUAAAAUCUAACUUUGAUUAAUUAUGGAAUUCUCGGGUGCCAA", "RBNS enrichment (R)": 1.41}
{"Strand": "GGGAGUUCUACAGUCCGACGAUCCCUCUUUAUCCAACAGAUAAAAGAAGGAACAUUGCAGAGCUAAGCAGAGGUGGCACGGAGGCAAUUGGGGAGUUCUUACUGAAUCCUCCUUUUCCACCCCACACCCUGAAUGGAAUUCUCGGGUGCCAA", "RBNS enrichment (R)": 0.168}
{"Strand": "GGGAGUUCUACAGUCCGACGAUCUCCCACCAGAGGGACGUGUGUGUGCCUGCAGACGGCCCGGGAGCUGUGUGUCUCCGCCAGAGUCACAGCAGUGCCGAGGUGUCCGCGGCAGACCACACAGACCGUCUGAAUGGAAUUCUCGGGUGCCAA", "RBNS enrichment (R)": 0.156}
{"Strand": "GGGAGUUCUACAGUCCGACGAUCGCAGCACGGAUAUAACACUAUGCAUUAAAAGCACUUUUUGUAAUAAGUUUAAUAUCCUAAAAGGAAUGCCAAUUAAGUUUUGUUAACUGUGUCAUCAACUUAUCCUAGUAUGGAAUUCUCGGGUGCCAA", "RBNS enrichment (R)": 0.893}
{"Strand": "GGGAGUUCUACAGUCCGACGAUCUGAGGCAGGGAGCGGACUUCCUAUUUUCUACCCUCAGUAAAACAAGGUGCUGCUUUGUAUAUCAAAAGCUCCAACCAUGUCCUCUCCCCCUCAGCCUGUGGGUGGCACGAUGGAAUUCUCGGGUGCCAA", "RBNS enrichment (R)": 0.588}
{"data": "Block 4", "target": "ABI1, truncated, D143A, DHFR fusion (Arabidopsis thaliana)", "method": "DHFR PCA, deep sequencing", "matrix": "yeast", "setting": "methotrexate growth selection, single substitutions", "with": "(+)-ABA 0.39 µM", "reference": "wild-type fitted maximum", "reading": "higher = stronger binding", "starting sequence": "PYL1, truncated, DHFR fusion (Arabidopsis thaliana); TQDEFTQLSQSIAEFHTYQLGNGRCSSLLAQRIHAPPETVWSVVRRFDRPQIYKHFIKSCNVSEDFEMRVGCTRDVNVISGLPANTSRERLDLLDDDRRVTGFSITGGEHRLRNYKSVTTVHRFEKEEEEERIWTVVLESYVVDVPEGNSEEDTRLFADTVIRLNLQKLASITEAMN"}
{"Change": "C60H", "relative binding score [%]": 5.62}
{"Change": "E130N", "relative binding score [%]": 39.6}
{"Change": "W134K", "relative binding score [%]": -0.0417}
{"Change": "N165R", "relative binding score [%]": 12.9}
{"Change": "H122R", "relative binding score [%]": -7.03}
{"Change": "S11A", "relative binding score [%]": 58.7}
{"Change": "C25Y", "relative binding score [%]": -9.81}
{"Change": "H122K", "relative binding score [%]": 0.632}
{"Change": "N177P", "relative binding score [%]": 60.7}
{"Change": "I133D", "relative binding score [%]": 74}
{"Change": "L8D", "relative binding score [%]": -6.49}
{"data": "Block 5", "target": "Interferon regulatory factor 3, full length, phosphomimetic (IRF3, Homo sapiens, UniProt Q14653, residues 1-427, S386D/S396D/S398D/S402D/T404D/S405D)", "method": "protein-binding microarray", "molecule type": "double-stranded DNA, one strand shown", "matrix": "in vitro", "tested at": "2540 nM top", "setting": "60-bp whole probe", "with": "salmon DNA 0.4 mg/ml", "reference": "random background probes", "reading": "higher = stronger binding", "constant ends, left off below": "GCCTAGCAC … GTCTTGATTCGCTTGACGCTGCTG", "sequence of UniProt Q14653 (whole entry, unmodified, looked up)": "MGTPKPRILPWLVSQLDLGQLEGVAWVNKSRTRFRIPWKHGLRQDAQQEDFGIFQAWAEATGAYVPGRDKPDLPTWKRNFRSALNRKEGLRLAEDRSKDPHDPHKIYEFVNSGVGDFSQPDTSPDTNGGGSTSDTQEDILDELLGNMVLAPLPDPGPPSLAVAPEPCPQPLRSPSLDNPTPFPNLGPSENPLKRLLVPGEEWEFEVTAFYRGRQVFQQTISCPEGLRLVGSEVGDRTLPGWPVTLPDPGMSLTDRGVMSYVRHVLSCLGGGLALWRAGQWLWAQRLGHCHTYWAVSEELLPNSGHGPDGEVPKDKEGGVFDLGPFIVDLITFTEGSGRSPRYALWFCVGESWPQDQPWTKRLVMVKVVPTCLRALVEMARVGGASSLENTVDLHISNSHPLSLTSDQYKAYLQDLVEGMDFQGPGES"}
{"Strand": "TTAGAACTGAGTTTCGACTAGTGCTAG", "fitted relative affinity": "0.661 z-score"}
{"Strand": "GTTCTACCTCTGCCTTTTGTGTGCTAG", "fitted relative affinity": "0.892 z-score"}
{"Strand": "GACGGTATCGACTTTCGTGACGTGCTA", "fitted relative affinity": "1.01 z-score"}
{"Strand": "GACGGTTTGCTACTGCTGACGTGCTAG", "fitted relative affinity": "0.114 z-score"}
{"Strand": "TTAGGTATCCTTATCCTTCAGTGCTAG", "fitted relative affinity": "5.34 z-score"}
{"Strand": "TCACATTACAGCTATTTTACTGTGCTA", "fitted relative affinity": "0.645 z-score"}
{"Strand": "TTAAGTCTCCTTATCCTTTAGTGCTAG", "fitted relative affinity": "3.53 z-score"}
{"Strand": "TTAGAACTGGGACTGGATTAGTGCTAG", "fitted relative affinity": "-0.706 z-score"}
{"Strand": "TTCGGACTGGGTTTCGGTTAGTGCTAG", "fitted relative affinity": "2.86 z-score"}
{"Strand": "TTAGGTAACCTACTGCTTTAGTGCTAG", "fitted relative affinity": "0.629 z-score"}
{"Strand": "TTAGGTATCGGACTGGGTGAGTGCTAG", "fitted relative affinity": "1.17 z-score"}
{"Strand": "TTGGATTTCGGGTTTCGATTAGTGCTA", "fitted relative affinity": "2.57 z-score"}
{"Strand": "TTAGGTCACCTTCTCCTTTAGTGCTAG", "fitted relative affinity": "2.41 z-score"}
{"Strand": "AAGGGTTAAAATTTTGCTTCGTGCTAG", "fitted relative affinity": "-0.593 z-score"}
{"Strand": "TATCTTATCCTATCAGTTTAGTGCTAG", "fitted relative affinity": "2.18 z-score"}
{"Strand": "GACGGACTGCTTCTCCTGCCGTGCTAG", "fitted relative affinity": "-0.514 z-score"}
{"Strand": "GCCGGACTGCTTATCCTGACGTGCTAG", "fitted relative affinity": "0.118 z-score"}
{"Strand": "TCAGATCTCAGTTTCGATTAGTGCTAG", "fitted relative affinity": "4.02 z-score"}
{"Strand": "GACGGTTCCCTACTGCTGACGTGCTAG", "fitted relative affinity": "2.48 z-score"}
{"Strand": "GACCAACTGAGTATCGAGACGTGCTAG", "fitted relative affinity": "0.117 z-score"}
{"Strand": "CCTCACATGACTGAATGGACGTGCTAG", "fitted relative affinity": "0.0877 z-score"}
{"Strand": "TTAGATATCAGTTTCCATTAGTGCTAG", "fitted relative affinity": "5.53 z-score"}
{"Strand": "GACGCTTTCAGTTTCGAGACGTGCTAG", "fitted relative affinity": "4.86 z-score"}
{"data": "Further values, each from its own experiment"}
{"Molecule": "PhoQ, residues 284 288 289 292 302 303 SSYNSA", "target": "PhoP, residues 12 14 15 18 19 LWHVM (Escherichia coli, UniProt P23836)", "test": "Sort-seq, measured: YFP reporter", "system": "E. coli", "conditions": "PhoQ-PhoP variant library, with: 10 µM Mg2+", "how to read": "reference: high Mg2+ state, higher = stronger signaling", "endpoint": "fold induction", "result": 21.7}
